Published values collected from several papers.
Compare with care: the assays were run in different laboratories. ≈ marks a conversion by molar mass, not a printed value.
UniProt Q8N4C8, sequence (whole entry, looked up): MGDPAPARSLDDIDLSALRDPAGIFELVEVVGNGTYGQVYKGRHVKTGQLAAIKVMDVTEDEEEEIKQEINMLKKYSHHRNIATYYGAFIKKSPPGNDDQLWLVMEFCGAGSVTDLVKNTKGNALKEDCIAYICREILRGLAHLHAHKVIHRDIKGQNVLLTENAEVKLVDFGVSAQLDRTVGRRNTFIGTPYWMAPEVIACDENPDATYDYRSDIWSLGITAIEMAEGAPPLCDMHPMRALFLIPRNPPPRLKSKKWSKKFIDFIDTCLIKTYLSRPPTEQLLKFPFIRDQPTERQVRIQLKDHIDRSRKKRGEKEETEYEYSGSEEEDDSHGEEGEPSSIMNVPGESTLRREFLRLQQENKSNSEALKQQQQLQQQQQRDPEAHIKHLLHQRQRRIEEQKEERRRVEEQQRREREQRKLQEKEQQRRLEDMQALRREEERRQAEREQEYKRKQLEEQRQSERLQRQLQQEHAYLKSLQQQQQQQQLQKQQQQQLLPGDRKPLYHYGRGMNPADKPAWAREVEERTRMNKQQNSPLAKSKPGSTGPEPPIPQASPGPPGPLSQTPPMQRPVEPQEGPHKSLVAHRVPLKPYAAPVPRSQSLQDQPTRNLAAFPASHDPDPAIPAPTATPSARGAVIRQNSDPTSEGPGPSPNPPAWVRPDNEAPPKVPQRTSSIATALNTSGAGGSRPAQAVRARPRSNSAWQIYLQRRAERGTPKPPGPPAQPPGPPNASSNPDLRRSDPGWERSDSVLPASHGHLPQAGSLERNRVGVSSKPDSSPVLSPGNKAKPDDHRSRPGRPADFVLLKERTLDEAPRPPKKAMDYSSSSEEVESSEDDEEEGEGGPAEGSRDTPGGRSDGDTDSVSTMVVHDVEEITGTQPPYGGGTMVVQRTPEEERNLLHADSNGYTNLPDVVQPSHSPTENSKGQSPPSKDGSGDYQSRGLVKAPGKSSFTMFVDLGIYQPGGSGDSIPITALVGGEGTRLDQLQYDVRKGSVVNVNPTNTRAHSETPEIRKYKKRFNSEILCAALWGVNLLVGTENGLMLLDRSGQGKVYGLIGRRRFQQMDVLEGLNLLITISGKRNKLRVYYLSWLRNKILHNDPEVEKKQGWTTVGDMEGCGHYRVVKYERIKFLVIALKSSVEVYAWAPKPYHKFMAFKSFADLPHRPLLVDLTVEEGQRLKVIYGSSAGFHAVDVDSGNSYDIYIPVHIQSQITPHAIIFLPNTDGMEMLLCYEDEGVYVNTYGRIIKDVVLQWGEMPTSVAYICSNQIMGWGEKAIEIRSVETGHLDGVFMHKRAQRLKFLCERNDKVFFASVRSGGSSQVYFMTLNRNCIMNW
UniProt O14730, sequence (whole entry, looked up): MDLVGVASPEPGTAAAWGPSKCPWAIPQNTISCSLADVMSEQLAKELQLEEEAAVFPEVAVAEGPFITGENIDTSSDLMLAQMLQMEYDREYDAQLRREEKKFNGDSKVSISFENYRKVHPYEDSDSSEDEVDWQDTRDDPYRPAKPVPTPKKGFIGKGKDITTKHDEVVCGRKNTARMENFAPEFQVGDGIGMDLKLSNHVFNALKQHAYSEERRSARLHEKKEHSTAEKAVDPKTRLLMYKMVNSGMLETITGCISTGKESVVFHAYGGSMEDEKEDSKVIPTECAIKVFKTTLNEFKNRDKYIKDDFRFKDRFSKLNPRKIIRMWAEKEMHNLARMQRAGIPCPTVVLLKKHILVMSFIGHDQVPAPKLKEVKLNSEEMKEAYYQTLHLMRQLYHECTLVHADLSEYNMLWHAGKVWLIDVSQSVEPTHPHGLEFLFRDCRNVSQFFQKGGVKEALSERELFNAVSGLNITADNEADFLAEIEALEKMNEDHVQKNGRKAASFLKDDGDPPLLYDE

Structure (SMILES)	tested on	test	test system	setting	quantity	result
C#Cc1ccc(C=NNC(=O)c2ccc(COC)cc2)c(O)c1	Cryptococcus neoformans	microbial growth, broth dilution	–	pH 7.4	MIC80	0.015 µg/mL (≈ 0.0486 µM)
COC(=O)c1cc(-c2cccc(NC(=S)NC3CCCCC3)c2)on1	Pseudomonas aeruginosa	microbial growth, broth dilution	ATCC27853	–	MIC	> 64 µg/mL
O=c1[nH]c2scc(-c3ccc(Cl)cc3)c2c(=O)n1O	Human betaherpesvirus 5	viral replication, inhibitor	–	10 µM, 7 days	inhibition	-1.7%
OC(Cn1cncn1)(Cn1cncn1)c1ccc(F)cc1F	Candida albicans	microbial killing, broth dilution	SP3876	48 h	MFC	> 64 µM
Cc1cc(Nc2ccc(Cl)c(Cl)c2)n2nc(C)nc2n1	Plasmodium falciparum	parasite growth, SYBR Green	3D7	72 h	EC50	> 12.5 µM
COC(=O)c1cc(-c2cccc(NC(=O)Nc3ccccc3C)c2)on1	Pseudomonas aeruginosa	microbial growth, broth dilution	ATCC27853	–	MIC	> 64 µg/mL
[2H]c1c([2H])c([C@]2([2H])CCCN2C(=O)C(C)(C)Oc2ccc3cn[nH]c3c2)c([2H])c([2H])c1C([2H])([2H])[2H]	MINK1 (Homo sapiens, UniProt Q8N4C8)	binding, competition with immobilised ligand	–	1 µM	remaining binding	100%
C#Cc1ccc(O)c(C=NNC(=O)c2ccc(Br)cc2)c1	Cryptococcus neoformans	microbial growth, broth dilution	–	pH 7.4	MIC80	0.007 µg/mL (≈ 0.0204 µM)
CC(c1ccc(OC(F)(F)F)cc1)c1nn2c(-c3cccs3)nnc2s1 (stereo not drawn)	Plasmodium falciparum	parasite growth, SYBR Green	3D7	72 h	EC50	0.17 µM
C#Cc1ccc(O)c(C=NNC(=O)c2ccc(Br)cc2Br)c1	Candida albicans	microbial growth	–	pH 7.4	MIC80	2 µg/mL (≈ 4.74 µM)
COC(=O)c1cc(-c2cccc(NC(=O)Nc3cccc(Cl)c3)c2)on1	Klebsiella pneumoniae	microbial growth, broth dilution	BAA1705	–	MIC	> 64 µg/mL
O=C(NNc1cc(F)ccc1F)c1nnc(CC23CC4CC(CC(C4)C2)C3)o1	Rhizoctonia solani	microbial growth	–	50 µg/mL	inhibition	100%
COc1ccccc1Cn1ccnc1SCC(=O)Nc1cc(C(F)(F)F)ccc1Cl	Plasmodium falciparum	parasite growth, SYBR Green	3D7	72 h	EC50	0.402 µM
Nc1ncc(-c2nc(N3CCOCC3)nc(N3CCOCC3)n2)c(C(F)F)n1	RIOK3 (Homo sapiens, UniProt O14730)	binding, competition with immobilised ligand	–	10 µM	remaining binding	98%
C[C@H]1[C@@H](O)O[C@@H]2O[C@@]3(C)CC[C@H]4[C@H](C)CC[C@@H]1[C@@]24OO3	Plasmodium falciparum	parasite growth, SYBR Green	3D7	72 h	EC50	0.0226 µM
Cc1sc2c(=O)n(O)c(=O)[nH]c2c1C	Human betaherpesvirus 5	viral replication, inhibitor	–	10 µM, 7 days	inhibition	-42%
C#Cc1ccc(C=NNC(=O)c2ccc(Br)c(O)c2)c(O)c1	Candida albicans	microbial growth	–	pH 7.4	MIC80	> 16 µg/mL
CCN(CC)CCCC(C)Nc1ccnc2cc(Cl)ccc12 (stereo not drawn)	Plasmodium falciparum	parasite growth, SYBR Green	W2	48 h, drug-resistant strain, blood stage	IC50	0.164 µM
COC(=O)c1cc(-c2cccc(NC(=S)Nc3ccc([N+](=O)[O-])cc3)c2)on1	Mycobacteroides chelonae	microbial growth, broth dilution	ATCC35752	48 h	MIC	> 64 µg/mL
Nc1ncnc2c([C@@H]3N[C@H](CO)[C@@H](O)[C@H]3O)c[nH]c12	Dengue virus	viral replication	Vero 76, DENV2	9.5 µM	inhibition	22.8%
CCCn1c(O)nnc1SCC(=O)Nc1cc(C(F)(F)F)ccc1Cl	Plasmodium falciparum	parasite growth, SYBR Green	3D7	72 h	EC50	0.812 µM
COC(=O)c1cc(-c2cccc(NC(=S)Nc3ccc(Cl)cc3)c2)on1	Mycolicibacterium fortuitum	microbial growth, broth dilution	ATCC6841	48 h	MIC	> 64 µg/mL
COC(CNC1=CC2=NCCc3c[nH]c(c32)C1=O)c1c[nH]c2ccccc12 (stereo not drawn)	Plasmodium falciparum	parasite growth, SYBR Green	3D7	blood stage	IC50	0.28 µM

Structure (SMILES)	tested on	test	test system	setting	quantity	result
C[C@@H]1[C@H](O)[C@@H](C)/C=C/C=C/C=C/C=C/C=C/C=C/C=C/[C@H](O[C@@H]2O[C@H](C)[C@@H](O)[C@H](N)[C@@H]2O)C[C@@H]2O[C@](O)(C[C@@H](O)C[C@@H](O)[C@H](O)CC[C@@H](O)C[C@@H](O)CC(=O)O[C@H]1C)C[C@H](O)[C@H]2C(=O)O	Candida albicans	microbial killing, broth dilution	SP3903	48 h	MFC	1 µM
O=C(NNc1ccccc1)c1nnc(CC23CC4CC(CC(C4)C2)C3)o1	Rhizoctonia solani	microbial growth	–	–	EC50	> 50 µg/mL
COC(=O)c1cc(-c2cccc(NC(=O)Nc3ccc(C)cc3)c2)on1	Mycolicibacterium fortuitum	microbial growth, broth dilution	ATCC6841	48 h	MIC	> 64 µg/mL
CC(Oc1ccc(C(=O)c2ccc(F)cc2)cc1)C(=O)N1CCc2ccccc21 (stereo not drawn)	Plasmodium falciparum	parasite growth, SYBR Green	3D7	72 h	EC50	0.0904 µM
O=C(NNc1ccc(Cl)c(Cl)c1)c1nnc(C23CC4CC(CC(C4)C2)C3)o1	Rhizoctonia solani	microbial growth	–	50 µg/mL	inhibition	75.4%
Cc1ccc(N2CCc3c(-c4cc5cccnc5nc4C)cc(C)nc32)c(Cl)c1	Plasmodium falciparum	parasite growth, SYBR Green	3D7	72 h	EC50	0.0872 µM
CCCCNC[C@H](O)c1cc(Cl)cc2c1-c1ccc(Cl)cc1C2	Plasmodium falciparum	parasite growth, SYBR Green	W2	48 h, drug-resistant strain, blood stage	IC50	0.0188 µM
CCOC(=O)c1cc(-c2cccc(NC(=O)Nc3ccc(Cl)c(Cl)c3)c2)on1	Mycolicibacterium fortuitum	microbial growth, broth dilution	ATCC6841	48 h	MIC	> 64 µg/mL
O=C(NNc1ccc(Cl)c(Cl)c1)c1nnc(CC23CC4CC(CC(C4)C2)C3)o1	Rhizoctonia solani	microbial growth	–	–	EC50	> 12.5 µg/mL
CC(=O)N1CCN(c2ccc(OCC3COC(Cn4ccnc4)(c4ccc(Cl)cc4Cl)O3)cc2)CC1 (stereo not drawn)	Candida albicans	microbial killing, broth dilution	SP3931	48 h	MFC	> 64 µM
O=C(NNc1cc(F)ccc1F)c1nnc(C23CC4CC(CC(C4)C2)C3)o1	Rhizoctonia solani	microbial growth	–	–	EC50	7.33 µg/mL
Cc1sc(CNCCCNc2cc(=O)c3ccccc3[nH]2)c(I)c1C	Plasmodium falciparum	parasite growth, SYBR Green	3D7	72 h	EC50	0.0576 µM
CC(=O)c1c(O)c(C)c(O)c(Cc2c(O)c3c(c(C(=O)/C=C/c4ccccc4)c2O)OC(C)(C)C=C3)c1O	Betacoronavirus 1	viral replication	MRC5, OC43	–	IC50	3.64 µM
C#Cc1ccc(C=NNC(=O)c2ccc(COCCC)cc2)c(O)c1	Candida albicans	microbial growth	–	pH 7.4	MIC80	0.5 µg/mL (≈ 1.49 µM)
O=C(NCCc1ncc(C(F)(F)F)cc1Cl)c1ccccc1C(F)(F)F	Rhizoctonia solani	microbial growth	–	50 µg/mL	inhibition	27.3%
COC(=O)c1cc(-c2cccc(NC(=O)Nc3ccc(F)cc3F)c2)on1	Mycobacteroides chelonae	microbial growth, broth dilution	ATCC35752	48 h	MIC	> 64 µg/mL
C#Cc1ccc(O)c(C=NNC(=O)c2cc(Br)cc(Br)c2O)c1	Cryptococcus neoformans	microbial growth, broth dilution	–	pH 7.4	MIC80	0.03 µg/mL (≈ 0.0685 µM)
C=C(C)[C@]12C[C@@H](C)[C@@]34O[C@](CCCCCCCCC)(O[C@@H]1[C@@H]3[C@@H]1O[C@]1(CO)[C@@H](O)[C@]1(O)C(=O)C(C)=C[C@H]14)O2	Human immunodeficiency virus 1	viral replication	MT4	–	IC50	0.00657 µM
O=C(NNc1cccc(Cl)c1)c1nnc(C23CC4CC(CC(C4)C2)C3)o1	Rhizoctonia solani	microbial growth	–	50 µg/mL	inhibition	55.9%
C#Cc1ccc(O)c(C=NNC(=O)c2ccc(COC)cc2)c1	Cryptococcus neoformans	microbial killing	–	–	MFC	1 µg/mL
CO/C=C(/C(=O)OC)c1ccccc1Oc1cc(Oc2ccccc2C#N)ncn1	Rhizoctonia solani	microbial growth	–	50 µg/mL	inhibition	45.4%
C#Cc1ccc(C(=O)NN=Cc2cc(C#C)ccc2O)cc1	Candida albicans	microbial growth	–	pH 7.4	MIC80	0.06 µg/mL (≈ 0.208 µM)

Repeated from above:
Structure (SMILES)	tested on	test	test system	setting	quantity	result
COC(=O)c1cc(-c2cccc(NC(=O)Nc3cccc(Cl)c3)c2)on1	Klebsiella pneumoniae	microbial growth, broth dilution	BAA1705	–	MIC	> 64 µg/mL
CCOC(=O)c1cc(-c2cccc(NC(=O)Nc3ccc(Cl)c(Cl)c3)c2)on1	Mycolicibacterium fortuitum	microbial growth, broth dilution	ATCC6841	48 h	MIC	> 64 µg/mL
O=c1[nH]c2scc(-c3ccc(Cl)cc3)c2c(=O)n1O	Human betaherpesvirus 5	viral replication, inhibitor	–	10 µM, 7 days	inhibition	-1.7%
C#Cc1ccc(O)c(C=NNC(=O)c2cc(Br)cc(Br)c2O)c1	Cryptococcus neoformans	microbial growth, broth dilution	–	pH 7.4	MIC80	0.03 µg/mL (≈ 0.0685 µM)
O=C(NCCc1ncc(C(F)(F)F)cc1Cl)c1ccccc1C(F)(F)F	Rhizoctonia solani	microbial growth	–	50 µg/mL	inhibition	27.3%
COC(=O)c1cc(-c2cccc(NC(=S)Nc3ccc(Cl)cc3)c2)on1	Mycolicibacterium fortuitum	microbial growth, broth dilution	ATCC6841	48 h	MIC	> 64 µg/mL
